# Experimental data collected from several papers.
# Each line is one published result; not all experiments were run side by side. Several values in a cell are separate wells, animals, samples, runs or records.
# Target: Dual specificity tyrosine-phosphorylation-regulated kinase 1B (DYRK1B, Homo sapiens, UniProt Q9Y463)
Compound,test,setting,how to read,quantity,result
CC(C)=CC1OC(C)(C)C2C=C3C(=O)C(Cl)=CC(O)C3C3C(O)C4OC4C(=O)C132 (stereo not drawn),"cell-free assay, competition with immobilised ligand",10 µM,,remaining binding,92%
Cc1[nH]nc2c1N=C(c1ccccc1Cl)c1cnc(N3CCOCC3)cc1N2,"enzyme activity, inhibitor",0.5 µM,,inhibition,68.5%
O=C(Cc1ccc(OCc2ccccc2)cc1)NC1(C(=O)O)CCN(C(=O)c2ccc(-c3cccc(Cl)c3)cc2)CC1,"enzyme activity, inhibitor",10 µM,,activity vs control,98%
Nc1ncc2c(n1)-c1c([nH]c3ccc(C4=CCOCC4)cc13)CCC2,"binding, competition with immobilised ligand",1 µM,,remaining binding,48%
COc1ccc(NC(=O)Nc2ccc3c(c2)C(=O)N(C(C)CO)CC(C)C(CN(C)Cc2ccc4c(c2)OCO4)O3)cc1 (stereo not drawn),"binding, competition with immobilised ligand",10 µM,,remaining binding,55%
C=CC(=O)N1Cc2nc(-c3cc(-c4cc(Cl)cnc4Cl)c(F)cc3F)n(-c3ccncn3)c2C1,cell-free assay,1 µM,,inhibition,10.4%
CN1CCN(Cc2ccc(-c3ccc(CO[C@H]4CCC[C@@H]4NC(=O)c4cc(-c5cnn(C)c5)cnc4N)cc3)cc2)CC1,"enzyme activity, inhibitor",0.1 µM,,inhibition,-6%
CCn1cc(C(=O)O)c(=O)c2c(N)c(F)c(NC3CCCCC3)cc21,kinase activity,"0.1 µM, added: ATP at Km",,inhibition,54.2%
CN1CC[C@@H](COc2cnc(C#N)cc2-c2ccn3nc(NC(=O)C4CC4)cc3c2)C1,"enzyme activity, inhibitor",1 µM,,inhibition,3%
COc1cc(-n2cc3cc(F)cc(C(N)=O)c3n2)cc(Cl)c1C1CC(O)(CCO)Cc2ccccc21 (stereo not drawn),"enzyme activity, inhibitor",10 µM,,inhibition,1.94%
Cc1cnc2nc1Nc1cccc(c1)COC/C=C/COCc1cc(ccc1OCCN1CCOCC1)N2,binding,0.1 µM,,remaining binding,84%
CN1CCN(Cc2ccc(NC(=O)c3cccc(C#Cc4cnc(N)c5ncccc45)c3)cc2C(F)(F)F)CC1,"cell-free assay, competition with immobilised ligand",50 nM,,remaining binding,45%
Nc1ncc(-c2cc(-c3cnn(CC(F)(F)F)c3)ncc2F)nc1C(=O)NC1CNCC(F)C1 (stereo not drawn),enzyme activity,1 µM,baseline: DMSO control,remaining activity,79.4%
COCC12C(=O)NC3C4(C(OC)CC1O)C1CC5(O)C(OC)C(O)C(OC(C)=O)(C1C5OC(=O)c1ccccc1)C3(O)C(OC)C24 (stereo not drawn),"kinase activity, inhibitor, ProQinase kinase profiling",25 µM,baseline: control,remaining activity,110% and 108%
C=CC(=O)Nc1cccc(-c2cnc3[nH]cc(C(=O)NC(C)(C)C)c3n2)c1,"enzyme activity, inhibitor",0.1 µM,,inhibition,4%
NC(=O)C[C@H]1CCc2sc3ncnc(O[C@H]4CC[C@H](N5CCOCC5)CC4)c3c21,"enzyme activity, inhibitor",10 µM,,inhibition,38%
Cc1cccc(O[C@H]2CCC[C@@H](C(C)CNCc3ccncc3)C2)c1 (relative stereo),cell-free assay,10 µM,,inhibition,-2%
Cc1ccc(-c2c(/C=C(\C#N)C(=O)NC(C)C)n(CCCO)c3ncnc(N)c23)cc1,"cell-free assay, competition with immobilised ligand",1 µM,,remaining binding,100%

# Some of these lines once more:
Compound,test,setting,how to read,quantity,result
CC(C)=CC1OC(C)(C)C2C=C3C(=O)C(Cl)=CC(O)C3C3C(O)C4OC4C(=O)C132 (stereo not drawn),"cell-free assay, competition with immobilised ligand",10 µM,,remaining binding,92%
Cc1[nH]nc2c1N=C(c1ccccc1Cl)c1cnc(N3CCOCC3)cc1N2,"enzyme activity, inhibitor",0.5 µM,,inhibition,68.5%
O=C(Cc1ccc(OCc2ccccc2)cc1)NC1(C(=O)O)CCN(C(=O)c2ccc(-c3cccc(Cl)c3)cc2)CC1,"enzyme activity, inhibitor",10 µM,,activity vs control,98%
